{"data": "Results collected from several papers", "note": "Parts stem from different laboratories: compare values within a part only."}
{"data": "Block 1", "target": "RING finger protein unkempt homolog, zinc fingers 1-6, GST-SBP tag (UNK, Homo sapiens, UniProt Q9C0B0, residues 30-357)", "method": "RNA Bind-n-Seq", "molecule type": "RNA", "medium": "in vitro", "concentration": "not given", "setting": "RNA with constant flanks, human and mouse sites, ends assumed", "relative to": "input RNA pool", "reading": "higher = stronger binding", "chain of UniProt Q9C0B0 (30-357, looked up)": "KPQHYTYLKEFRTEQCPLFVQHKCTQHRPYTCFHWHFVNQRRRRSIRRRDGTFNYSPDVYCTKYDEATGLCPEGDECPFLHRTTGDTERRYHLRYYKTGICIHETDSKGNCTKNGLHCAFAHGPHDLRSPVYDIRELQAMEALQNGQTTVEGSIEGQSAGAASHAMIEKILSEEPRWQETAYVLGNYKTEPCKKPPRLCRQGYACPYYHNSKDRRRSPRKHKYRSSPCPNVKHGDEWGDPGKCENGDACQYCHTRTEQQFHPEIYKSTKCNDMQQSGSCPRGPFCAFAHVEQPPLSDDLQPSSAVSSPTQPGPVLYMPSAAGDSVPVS"}
{"Sequence": "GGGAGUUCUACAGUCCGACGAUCAAACUCAUCCUUAAAGGGGUCAUACUGCUGAUUGUGGACAAAGCCUUAGAAGAGCCAAAGUAUAGCUCGCUGUAUGCUCAGCUAUGUCUGCGAUUGGCAGAAGAUGCACCAAACUUUGAUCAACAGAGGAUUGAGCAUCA", "bound/input enrichment [ratio]": 0.139}
{"Sequence": "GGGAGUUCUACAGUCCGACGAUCGAGAAAAUUAAUAAAGAAGCAGUGUGGUUCCUCUCCAACAUCACUGCAGGAAAUCAGCAGCAGGUACAGGCAGUAAUUGAUGCCAAUCUUGUACCAAUGAUAAUACACCUUUUGGAUAAGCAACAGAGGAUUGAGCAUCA", "bound/input enrichment [ratio]": 0.878}
{"Sequence": "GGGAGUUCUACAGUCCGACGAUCGCAUAAAAAGCACAAUUGCUAGGACUUCAGUUUUUACUUCAGACUAAAGCUACCCAAGGACUUAGCAGAUAUGGGGGUUACAUCAGUGCUGGUCAUUGUAGCCUGAGUAUACAAUCAAGCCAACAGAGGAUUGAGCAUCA", "bound/input enrichment [ratio]": 0.211}
{"Sequence": "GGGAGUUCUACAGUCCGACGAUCACUCAGCACCUCAGUGUCGAGACUUCGUACCUUCAGCAUGAGAGUGGCCGCAUUUCCACUAAGUUUGAAUUUGUCCCCAGCCCUGGAAACCAUUUUAUCUGGUAUCGGGGGAAAUGGAUUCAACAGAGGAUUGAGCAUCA", "bound/input enrichment [ratio]": 0.184}
{"Sequence": "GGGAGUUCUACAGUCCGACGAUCCUGAAUCUGCCAACCUUCAGUGUUCGAAUCAUUGACAAAAAUGGCAUCCAUGACCUGGAUAACAUUUCCUUCCCCAAACAGGGCUCCUAACAUCAUGUCCUCCCUCCCACUUGCCAGGGACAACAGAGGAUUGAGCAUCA", "bound/input enrichment [ratio]": 0.313}
{"Sequence": "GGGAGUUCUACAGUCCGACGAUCGAAGAAGCCGUGAAUAAGGUGAAAAUUCAGGCCAUGUCAGAGGUACAGAAGGCUGUAGCUGAGGCAGAGCAAAAAGCCUUUGAAGUGAUUGCAACGGAGAGAGCUCGAAUGGAGCAGACCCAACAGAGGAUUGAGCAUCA", "bound/input enrichment [ratio]": 0.251}
{"Sequence": "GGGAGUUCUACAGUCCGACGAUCGAUUUUUAACUCCAGAAGCACUUUACGGGAUGGUACACUGACUAACAUAGAAGACAUUUCCAGGAGUUUGCCAGGGGUUCCUCACUAUGCUGGUACUAAAAGUAUAACCUCUUGGAGCCACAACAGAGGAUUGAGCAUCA", "bound/input enrichment [ratio]": 0.228}
{"Sequence": "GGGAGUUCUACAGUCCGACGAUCAGUCCAAAUCACGCAGUGGUGCACGGCAACCUGGCUUGUGUAUACUAUGAGCAAGGCCUGAUAGAUCUGGCAAUAGACACCUACAGGCGGGCUAUCGAACUACAACCACAUUUCCCUGAUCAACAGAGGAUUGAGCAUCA", "bound/input enrichment [ratio]": 0.263}
{"data": "Block 2", "target": "RNA binding protein fox-1 homolog 2, RRM domain, GST-SBP tag (RBFOX2, Homo sapiens, UniProt O43251-10, residues 100-194)", "method": "RNA Bind-n-Seq", "molecule type": "RNA", "medium": "in vitro", "concentration": "365 nM", "setting": "natural RNA segment, single round, ends assumed", "relative to": "no-protein control", "reading": "higher = stronger binding", "Target sequence (chain)": "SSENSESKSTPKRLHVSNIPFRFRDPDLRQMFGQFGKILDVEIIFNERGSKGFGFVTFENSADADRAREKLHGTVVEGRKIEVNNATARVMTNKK"}
{"Sequence": "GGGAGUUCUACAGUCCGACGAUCACUCCCAUAUAAGCAUUCAAUCAGUGUAACUUGCAAAAUGCAUAAACAUCCGACAGUUUGAAUUUAUAGUGUUGAUGGAAGAAAUCAUUUUUAAUGUGUACUGUAAAACUUGGAAUUCUCGGGUGCCAA", "RBNS enrichment (R)": 0.671}
{"Sequence": "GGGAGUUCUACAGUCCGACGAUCCAGCUCCAACAUGCGGGAUGUUCAUCCUCCUACACAGAUUCUUGUUGGGUGAAACAGAUUGUCCUAUCACAAAGCAGAAUUCAACAAAGUUAAAAUUUAAGAUAAGGUUUUGGAAUUCUCGGGUGCCAA", "RBNS enrichment (R)": 0.382}
{"Sequence": "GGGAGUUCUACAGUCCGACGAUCCCUUCCACAUGUCAAUGUCGUAAGACAGAGAGCAAAGCCUCCCACCAUCGUUAGGACUCCUGAGUAACCAGGAGUUGCUGACUGUCCCUUCAAGUGACUGUGGCUCCUUUUGGAAUUCUCGGGUGCCAA", "RBNS enrichment (R)": 0.37}
{"Sequence": "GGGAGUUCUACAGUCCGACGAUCCUGACUCUGGCUGCUGCUGAACACCGGGCCUGGACAGGUUGCUGAGGCUGGCUUUGAACUUGGGAUCCUGAGGCUUCAGACUCCCAGGUGGCUGUUUAUUCUCUCUAACCUGGAAUUCUCGGGUGCCAA", "RBNS enrichment (R)": 0.252}
{"Sequence": "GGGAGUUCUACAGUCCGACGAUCCAUAUUUGUAUUUAUUUCCAAAAUUAAAUUGUAAGCUCCUUGAGGGCAGGAAUAAUAACUUUUACAUUUGUAUCUCUGCACCCCCGAGUGCCUAGUAUAGUGCUGAGCACUGGAAUUCUCGGGUGCCAA", "RBNS enrichment (R)": 0.451}
{"Sequence": "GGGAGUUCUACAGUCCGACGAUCUUUUGAACCUCGCUGGACCUUGUAUGUGUGCACAUUUGCCAGAGAUUGAACAUAAUCCUCUUGGGACUUCACGUUCUCAUUAUUUGUAUGUCUCCGGGGUCACGCAGAGCUGGAAUUCUCGGGUGCCAA", "RBNS enrichment (R)": 0.26}
{"Sequence": "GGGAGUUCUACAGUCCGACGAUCAAAGACUUCUCAGCUCUGACCUGCCUGCCUCCUUGGAAUUAGACUUGAACUUCUGAUCCUGCCUAUCUGUUCUAUGUGAGUGGCAUCUGGGCCCCUAACCUGUCAGUUCAUGGAAUUCUCGGGUGCCAA", "RBNS enrichment (R)": 1.09}
{"Sequence": "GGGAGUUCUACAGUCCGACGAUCUAGUCAGAUGCUUACAACUAUUUAUAAUGCAUCAAUUUGAACUUAGAAGGUAGGAGAUCAGAUCAUAUGUGGGAAAAUGUAAAAGCAGGGAUAUCAGUGGGCAUUAGAAUUGGAAUUCUCGGGUGCCAA", "RBNS enrichment (R)": 0.902}
{"data": "Block 3", "target": "Prothrombin, mature alpha-thrombin (F2, Homo sapiens, UniProt P00734)", "method": "aptamer microarray, sandwich", "molecule type": "DNA with 2'F-ANA", "medium": "in vitro", "concentration": "200 nM", "setting": "whole 15-mer aptamer, many near background", "added": "Cy3 exosite-II aptamer, 400 nM", "reading": "higher = stronger binding", "sequence": "GGTTGGTGTGGTTGG"}
{"Modification": "2'F-ANA at 1 5 6 7 8 15", "mean fluorescence intensity [a.u.]": 62.3}
{"Modification": "2'F-ANA at 3 4 5 6 8 9 10 11 12 13 14 15", "mean fluorescence intensity [a.u.]": 51.4}
{"Modification": "2'F-ANA at 6 7 9 10 12 15", "mean fluorescence intensity [a.u.]": 198}
{"Modification": "2'F-ANA at 1 3 4 5 6 11 12 13 14 15", "mean fluorescence intensity [a.u.]": 47.6}
{"Modification": "2'F-ANA at 1 2 3 4 7 8 10 13 14", "mean fluorescence intensity [a.u.]": 50.1}
{"Modification": "2'F-ANA at 2 4 12 13 15", "mean fluorescence intensity [a.u.]": 413}
{"Modification": "2'F-ANA at 2 6 10 11 12 15", "mean fluorescence intensity [a.u.]": 199}
{"Modification": "2'F-ANA at 2 3 4 6 10", "mean fluorescence intensity [a.u.]": 255}
{"Modification": "2'F-ANA at 2 7 8 11 12 14", "mean fluorescence intensity [a.u.]": 207}
{"Modification": "2'F-ANA at 3 6 9 10 14", "mean fluorescence intensity [a.u.]": 421}
{"Modification": "2'F-ANA at 4 6 7 9 10 11 12 14 15", "mean fluorescence intensity [a.u.]": 57.7}
{"Modification": "2'F-ANA at 1 3 10 11 12", "mean fluorescence intensity [a.u.]": 123}
{"Modification": "2'F-ANA at 7 8 9 11 12", "mean fluorescence intensity [a.u.]": 742}
{"Modification": "2'F-ANA at 4 6 10 12 13 14 15", "mean fluorescence intensity [a.u.]": 55.2}
{"Modification": "2'F-ANA at 1 2 3 5 7 9 10 14 15", "mean fluorescence intensity [a.u.]": 64.3}
{"Modification": "2'F-ANA at 6 7 8 10 11 13 15", "mean fluorescence intensity [a.u.]": 123}
{"Modification": "2'F-ANA at 2 5 7 9 10 11 13 14 15", "mean fluorescence intensity [a.u.]": 45.2}
{"Modification": "2'F-ANA at 1 8 10 11 14", "mean fluorescence intensity [a.u.]": 49.3}
{"Modification": "2'F-ANA at 6 7 8 10 12 14", "mean fluorescence intensity [a.u.]": 144}
{"Modification": "2'F-ANA at 2 5 6 7 9 10 13", "mean fluorescence intensity [a.u.]": 44.8}
{"Modification": "2'F-ANA at 2 3 4 5 11 13 15", "mean fluorescence intensity [a.u.]": 67.4}
{"Modification": "2'F-ANA at 1 3 4 7 10 12 15", "mean fluorescence intensity [a.u.]": 81.5}
{"data": "Block 4", "target": "Myc proto-oncogene protein, bHLH-zipper, MAX partner unstated (MYC, Homo sapiens, UniProt P01106, residues 368-449)", "method": "protein-binding microarray", "molecule type": "double-stranded DNA, one strand shown", "medium": "in vitro", "concentration": "not given", "setting": "k-mer, scored over probes, only values ≥0.25", "reading": "higher = stronger binding", "chain of UniProt P01106 (368-449, looked up)": "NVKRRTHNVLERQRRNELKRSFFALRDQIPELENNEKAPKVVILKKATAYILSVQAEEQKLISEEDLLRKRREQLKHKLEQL"}
{"Sequence": "ACGAGCGG", "E-score": 0.27}
{"Sequence": "GACCCCAC", "E-score": 0.301}
{"Sequence": "GTGGGACA", "E-score": 0.334}
{"Sequence": "TCACGCGA", "E-score": 0.38}
{"Sequence": "ACGCGCCG", "E-score": 0.294}
{"Sequence": "AGCTCGTG", "E-score": 0.312}
{"Sequence": "ACGGGTGG", "E-score": 0.251}
{"Sequence": "CACCATGA", "E-score": 0.314}
{"Sequence": "GCACGCCA", "E-score": 0.35}
{"Sequence": "ACGGGCCA", "E-score": 0.252}
{"Sequence": "AGTCGTGC", "E-score": 0.28}
{"Sequence": "ACACGAGC", "E-score": 0.322}
{"Sequence": "CGGTGTGC", "E-score": 0.275}
{"Sequence": "CCATGCAC", "E-score": 0.379}
{"Sequence": "ACGTGGTC", "E-score": 0.438}
{"Sequence": "ACGGGGTA", "E-score": 0.255}
{"Sequence": "ACACGTGA", "E-score": 0.48}
{"Sequence": "AGACGCAT", "E-score": 0.274}
{"Sequence": "CGTGTCCC", "E-score": 0.344}
{"Sequence": "ACATGTCT", "E-score": 0.282}
{"Sequence": "AGACACAC", "E-score": 0.279}
{"Sequence": "CATGCGCA", "E-score": 0.417}
{"Sequence": "AGACACGC", "E-score": 0.428}
{"Sequence": "GGGCGTGA", "E-score": 0.251}
{"Sequence": "AACGCACA", "E-score": 0.289}
{"note": "A few entries again (block 4):"}
{"Sequence": "CGGTGTGC", "E-score": 0.275}
{"Sequence": "CCATGCAC", "E-score": 0.379}
{"Sequence": "ACGTGGTC", "E-score": 0.438}
{"Sequence": "ACGGGGTA", "E-score": 0.255}
{"Sequence": "ACACGTGA", "E-score": 0.48}
{"Sequence": "AGACGCAT", "E-score": 0.274}
